# Results pooled from the literature.
# Each line is one published result; not all experiments were run side by side. ± gives the spread as reported.
# Target: Tyrosine-protein kinase ABL2 (ABL2, Homo sapiens, UniProt P42684)
# Sequence of UniProt P42684 (whole entry, looked up): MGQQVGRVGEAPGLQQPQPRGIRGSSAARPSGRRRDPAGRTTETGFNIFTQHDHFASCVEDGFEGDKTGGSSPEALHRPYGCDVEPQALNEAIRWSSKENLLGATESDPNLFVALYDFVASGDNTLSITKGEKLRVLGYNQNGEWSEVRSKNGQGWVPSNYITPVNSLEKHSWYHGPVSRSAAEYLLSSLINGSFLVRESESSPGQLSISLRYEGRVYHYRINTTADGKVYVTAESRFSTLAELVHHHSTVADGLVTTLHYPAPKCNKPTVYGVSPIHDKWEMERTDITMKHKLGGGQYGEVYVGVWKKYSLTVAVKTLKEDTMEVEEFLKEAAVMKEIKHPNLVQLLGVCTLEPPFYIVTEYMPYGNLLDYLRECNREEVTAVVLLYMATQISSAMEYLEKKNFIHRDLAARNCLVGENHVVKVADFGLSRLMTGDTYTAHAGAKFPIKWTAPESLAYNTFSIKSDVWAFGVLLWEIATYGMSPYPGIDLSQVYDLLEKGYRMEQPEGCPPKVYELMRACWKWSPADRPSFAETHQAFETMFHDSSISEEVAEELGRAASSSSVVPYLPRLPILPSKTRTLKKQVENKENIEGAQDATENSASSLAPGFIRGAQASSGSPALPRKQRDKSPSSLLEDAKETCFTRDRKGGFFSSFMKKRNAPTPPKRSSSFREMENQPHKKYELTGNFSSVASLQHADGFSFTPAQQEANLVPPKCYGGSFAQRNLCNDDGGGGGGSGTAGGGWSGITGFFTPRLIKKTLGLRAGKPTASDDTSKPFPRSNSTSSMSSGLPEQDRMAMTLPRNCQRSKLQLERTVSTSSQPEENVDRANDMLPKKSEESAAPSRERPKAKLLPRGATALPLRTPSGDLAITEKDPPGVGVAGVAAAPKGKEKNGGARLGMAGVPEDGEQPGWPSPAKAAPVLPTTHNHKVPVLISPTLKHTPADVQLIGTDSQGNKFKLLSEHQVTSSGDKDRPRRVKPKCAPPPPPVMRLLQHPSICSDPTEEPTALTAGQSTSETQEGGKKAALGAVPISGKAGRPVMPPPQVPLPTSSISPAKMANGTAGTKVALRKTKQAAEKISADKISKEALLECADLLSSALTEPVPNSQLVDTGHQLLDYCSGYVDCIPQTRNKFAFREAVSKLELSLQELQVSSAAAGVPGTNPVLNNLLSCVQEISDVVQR
Compound,test,conditions,how to read,quantity,result
C=CC(=O)N1CCC[C@@H](n2nc(-c3ccc(Oc4ccccc4)cc3)c3c(N)ncnc32)C1,,10 µM,,remaining activity,548%
Cc1cc(Nc2cc(N3CCN(C)CC3)nc(Sc3ccc(NC(=O)C4CC4)cc3)n2)[nH]n1,"kinase activity, KinaseProfiler","0.03 µM, species human",relative to: control,remaining activity,27%
C=CC(=O)N1CCC([C@@H]2CCNc3c(C(N)=O)c(-c4ccc(Oc5ccccc5)cc4)nn32)CC1,"kinase activity, inhibitor, HotSpot radiometric","100 nM, with: ATP 10 µM",,remaining activity,90.1 ± 0.4%
CNc1ncc2c(/C=C/C(=O)N3CCC(OC)CC3)nn(Cc3cccc(C(F)(F)F)c3)c2n1,"kinase activity, inhibitor",1 µM,relative to: untreated control,remaining activity,95%
C=CC(=O)N1CCC(COCC(=O)N2CCN(c3nc(-c4cnc(N)nc4C(F)F)nc(N4CCOC[C@@H]4C)n3)CC2)CC1,KINOMEscan,1 µM,,remaining binding,93%
COc1cc(-c2cncc3c2CN(C)Cc2cc(N4CCNCC4)ccc2-3)cc(OC)c1OC,kinase activity,"1 µM, human enzyme, with: ATP 10 µM",relative to: DMSO control,remaining activity,96%
C=CC(=O)N1CCC[C@@H](n2nc(-c3ccc(Oc4ccccc4)cc3)c3c(N)ncnc32)C1,"kinase activity, inhibitor, HotSpot radiometric","100 nM, with: ATP 10 µM",,remaining activity,76.4 ± 0.4%
[2H]c1cc(C)c(NC(=O)c2cnc(Nc3cc(N4CCCCC4)nc(C)n3)s2)c(Cl)c1,,0.01 µM,,inhibition,> 90%
CC#CC(=O)N1CCC[C@H]1c1nc(-c2ccc(C(=O)Nc3ccccn3)cc2)c2c(N)nccn12,"kinase activity, inhibitor, HotSpot radiometric","100 nM, with: ATP 10 µM",,remaining activity,95.5 ± 2.1%
O=C(NC1CCC1)c1ccc2nc(-c3cccc(NS(=O)(=O)NCCN4CCCCC4)c3)cn2c1,enzyme activity,10 µM,,remaining activity,100%

# Repeated from above:
Compound,test,conditions,how to read,quantity,result
CNc1ncc2c(/C=C/C(=O)N3CCC(OC)CC3)nn(Cc3cccc(C(F)(F)F)c3)c2n1,"kinase activity, inhibitor",1 µM,relative to: untreated control,remaining activity,95%
